Results from different studies.
Each numbered part is a random draw from the data of one study; scales do not carry over between parts. Substitutions count along the parent as printed.
UniProt O15294, sequence (whole entry, looked up): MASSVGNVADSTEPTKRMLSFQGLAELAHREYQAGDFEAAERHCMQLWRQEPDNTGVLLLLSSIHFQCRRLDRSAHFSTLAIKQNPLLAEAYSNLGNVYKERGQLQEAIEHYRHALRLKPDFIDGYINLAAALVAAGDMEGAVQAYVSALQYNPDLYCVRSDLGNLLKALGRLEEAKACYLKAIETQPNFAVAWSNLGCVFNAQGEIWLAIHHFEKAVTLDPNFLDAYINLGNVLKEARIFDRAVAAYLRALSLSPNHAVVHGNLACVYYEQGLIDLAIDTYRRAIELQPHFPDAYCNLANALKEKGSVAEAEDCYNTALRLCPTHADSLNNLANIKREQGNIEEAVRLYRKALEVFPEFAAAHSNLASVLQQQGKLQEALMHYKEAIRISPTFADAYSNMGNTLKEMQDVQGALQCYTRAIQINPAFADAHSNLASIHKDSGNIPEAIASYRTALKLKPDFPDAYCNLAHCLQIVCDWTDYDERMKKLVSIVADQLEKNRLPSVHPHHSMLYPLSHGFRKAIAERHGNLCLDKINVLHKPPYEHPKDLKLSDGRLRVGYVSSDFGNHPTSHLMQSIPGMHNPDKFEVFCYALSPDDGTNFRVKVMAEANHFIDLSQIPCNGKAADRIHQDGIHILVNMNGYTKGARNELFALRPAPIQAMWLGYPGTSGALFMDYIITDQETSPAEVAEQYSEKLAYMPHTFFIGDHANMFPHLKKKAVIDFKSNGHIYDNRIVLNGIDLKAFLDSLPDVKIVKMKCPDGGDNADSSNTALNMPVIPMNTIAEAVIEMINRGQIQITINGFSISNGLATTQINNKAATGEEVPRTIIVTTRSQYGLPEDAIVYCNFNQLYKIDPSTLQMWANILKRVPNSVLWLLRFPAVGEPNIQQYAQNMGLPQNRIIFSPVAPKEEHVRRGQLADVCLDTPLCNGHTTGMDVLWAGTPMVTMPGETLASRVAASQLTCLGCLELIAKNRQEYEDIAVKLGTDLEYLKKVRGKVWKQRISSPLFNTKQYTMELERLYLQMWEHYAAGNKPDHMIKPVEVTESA

Study 1
Target: CEP164, C-terminal peptide (human)
Technique: DHFR complementation, deep sequencing
Medium: yeast
Notes: single substitutions, model-inferred values
Baseline: wild type
Direction: higher = weaker binding
Parent: PDZK1, PDZ domain 2 (human); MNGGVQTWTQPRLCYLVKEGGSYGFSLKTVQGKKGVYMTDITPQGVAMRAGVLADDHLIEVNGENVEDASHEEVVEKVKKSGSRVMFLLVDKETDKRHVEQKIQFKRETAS; partner HNRVKVYRF
| Change | binding free energy change [kcal/mol] |
| --- | --- |
| L88C | -0.0255 |
| G63K | 0.423 |
| V75T | 1.68 |
| M48Q | -0.215 |
| V17P | 1.14 |
| G82L | 0.641 |
| K34W | 0.305 |
| A54R | 0.242 |

Study 2
Target: PABPC1L2, full length, GST fusion (mouse, UniProt A0ABA7IW68)
Technique: RNAcompete
Molecule type: RNA
Medium: in vitro
Tested at: 20 nM
Notes: 7-mer, probes averaged, single round
Baseline: mean of 7-mers
Direction: higher = stronger binding
Residues (chain): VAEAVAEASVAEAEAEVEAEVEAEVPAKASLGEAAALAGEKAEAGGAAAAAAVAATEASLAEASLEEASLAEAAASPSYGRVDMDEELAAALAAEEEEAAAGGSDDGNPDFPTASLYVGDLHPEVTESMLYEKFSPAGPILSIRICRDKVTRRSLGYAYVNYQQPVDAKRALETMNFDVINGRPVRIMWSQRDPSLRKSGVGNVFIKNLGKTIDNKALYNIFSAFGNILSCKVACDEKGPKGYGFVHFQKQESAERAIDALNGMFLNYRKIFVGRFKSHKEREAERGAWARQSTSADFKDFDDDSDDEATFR
| Strand | 7-mer Z-score |
| --- | --- |
| UAACUCC | -0.278 |
| GAGAUCU | -0.162 |
| UGACGCA | -0.112 |
| GCGAGAU | 0.0678 |
| GCCGUGC | -0.306 |
| GGCGGAU | 0.463 |
| UCCUGUA | -0.277 |
| CUUGGGC | -0.0754 |

Study 3
Target: Sal-like protein 4, full length isoform A (SALL4, Homo sapiens, UniProt Q9UJQ4, residues 1-1053)
UniProt Q9UJQ4, sequence (whole entry, looked up): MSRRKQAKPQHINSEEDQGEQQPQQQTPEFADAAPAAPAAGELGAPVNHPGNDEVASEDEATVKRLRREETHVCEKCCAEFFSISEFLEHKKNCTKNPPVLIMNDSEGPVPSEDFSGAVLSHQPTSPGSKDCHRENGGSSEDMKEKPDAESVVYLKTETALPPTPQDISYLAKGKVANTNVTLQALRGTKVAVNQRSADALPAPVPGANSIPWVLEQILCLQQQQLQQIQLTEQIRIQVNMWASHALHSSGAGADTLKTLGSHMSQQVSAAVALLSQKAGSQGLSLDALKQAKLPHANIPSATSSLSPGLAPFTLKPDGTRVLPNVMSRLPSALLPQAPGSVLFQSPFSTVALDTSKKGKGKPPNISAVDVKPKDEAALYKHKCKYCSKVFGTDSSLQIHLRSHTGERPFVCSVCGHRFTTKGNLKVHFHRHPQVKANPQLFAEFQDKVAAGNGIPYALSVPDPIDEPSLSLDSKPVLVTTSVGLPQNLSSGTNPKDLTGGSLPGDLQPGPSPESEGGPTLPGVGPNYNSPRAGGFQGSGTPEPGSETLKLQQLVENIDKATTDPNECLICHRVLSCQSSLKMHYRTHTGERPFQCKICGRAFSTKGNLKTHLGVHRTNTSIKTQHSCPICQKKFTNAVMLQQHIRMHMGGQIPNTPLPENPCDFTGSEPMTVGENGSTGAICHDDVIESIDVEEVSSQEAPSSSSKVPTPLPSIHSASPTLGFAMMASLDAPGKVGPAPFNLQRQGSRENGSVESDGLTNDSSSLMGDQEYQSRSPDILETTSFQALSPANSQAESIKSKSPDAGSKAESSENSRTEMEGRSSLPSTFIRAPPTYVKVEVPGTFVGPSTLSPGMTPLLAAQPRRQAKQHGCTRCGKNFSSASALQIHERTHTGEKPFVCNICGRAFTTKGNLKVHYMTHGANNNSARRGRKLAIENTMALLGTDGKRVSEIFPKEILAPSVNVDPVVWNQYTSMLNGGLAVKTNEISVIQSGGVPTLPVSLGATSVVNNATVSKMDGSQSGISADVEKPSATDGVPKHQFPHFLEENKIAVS
Technique: universal PBM
Molecule type: double-stranded DNA, one strand shown
Medium: in vitro
Tested at: 600 nM
Notes: 8-mer, flanks averaged, mean of replicates
Direction: higher = stronger binding
| Strand | E-score |
| --- | --- |
| CTTCTCAC | 0.00372 |
| AAATAAAA | 0.336 |
| CAGGTTTA | 0.0536 |
| AGCCCGGC | -0.41 |
| GCACCGGC | -0.331 |
| CTTTATAC | 0.217 |
| ATACAGGC | 0.103 |
| ACCGAGGT | -0.258 |

Other studies, line by line
| Molecule | target | test | system | setting | scale | measurement | value |
| --- | --- | --- | --- | --- | --- | --- | --- |
| SYVHSHAMHPYHSQH | UDP-N-acetylglucosamine--peptide N-acetylglucosaminyltransferase 110 kDa subunit (OGT, Homo sapiens, UniProt O15294) | binding, phage display NGS | peptide | concentration not given | baseline: input library | enrichment fold change | 3.35 |

Excerpt of the above (study 2):
| Strand | 7-mer Z-score |
| --- | --- |
| GAGAUCU | -0.162 |
| UAACUCC | -0.278 |
| UGACGCA | -0.112 |
